Results from different studies.
± gives the spread as reported.
UniProt P00519, sequence (whole entry, unmodified, looked up): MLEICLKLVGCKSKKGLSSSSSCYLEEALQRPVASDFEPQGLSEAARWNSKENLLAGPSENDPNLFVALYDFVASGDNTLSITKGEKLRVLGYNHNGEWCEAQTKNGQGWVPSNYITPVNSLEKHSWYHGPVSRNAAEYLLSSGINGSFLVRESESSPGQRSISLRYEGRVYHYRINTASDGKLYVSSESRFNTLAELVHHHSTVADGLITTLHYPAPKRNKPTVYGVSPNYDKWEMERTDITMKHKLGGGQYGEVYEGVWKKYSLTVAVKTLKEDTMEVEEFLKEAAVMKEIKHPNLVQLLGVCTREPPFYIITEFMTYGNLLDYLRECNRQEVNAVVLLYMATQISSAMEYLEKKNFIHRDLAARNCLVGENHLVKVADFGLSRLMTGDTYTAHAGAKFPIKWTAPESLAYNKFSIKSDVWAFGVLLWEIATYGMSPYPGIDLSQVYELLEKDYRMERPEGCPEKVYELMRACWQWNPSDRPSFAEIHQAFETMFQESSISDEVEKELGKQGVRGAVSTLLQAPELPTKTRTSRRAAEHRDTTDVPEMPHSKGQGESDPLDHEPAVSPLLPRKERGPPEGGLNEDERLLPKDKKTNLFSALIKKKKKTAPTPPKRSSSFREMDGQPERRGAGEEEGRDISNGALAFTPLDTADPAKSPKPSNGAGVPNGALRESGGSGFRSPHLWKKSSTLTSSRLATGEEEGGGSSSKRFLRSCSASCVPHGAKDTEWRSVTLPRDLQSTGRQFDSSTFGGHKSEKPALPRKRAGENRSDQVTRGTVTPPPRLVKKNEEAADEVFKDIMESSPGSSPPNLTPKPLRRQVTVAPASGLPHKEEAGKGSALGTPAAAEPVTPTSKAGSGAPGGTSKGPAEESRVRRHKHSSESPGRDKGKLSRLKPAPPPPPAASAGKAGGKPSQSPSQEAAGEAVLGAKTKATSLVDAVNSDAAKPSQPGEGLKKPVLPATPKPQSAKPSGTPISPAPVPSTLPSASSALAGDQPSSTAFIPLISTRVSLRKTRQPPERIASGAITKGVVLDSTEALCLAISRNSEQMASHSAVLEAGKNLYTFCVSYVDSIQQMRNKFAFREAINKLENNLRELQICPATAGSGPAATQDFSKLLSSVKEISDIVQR
UniProt P46095, sequence (whole entry, looked up): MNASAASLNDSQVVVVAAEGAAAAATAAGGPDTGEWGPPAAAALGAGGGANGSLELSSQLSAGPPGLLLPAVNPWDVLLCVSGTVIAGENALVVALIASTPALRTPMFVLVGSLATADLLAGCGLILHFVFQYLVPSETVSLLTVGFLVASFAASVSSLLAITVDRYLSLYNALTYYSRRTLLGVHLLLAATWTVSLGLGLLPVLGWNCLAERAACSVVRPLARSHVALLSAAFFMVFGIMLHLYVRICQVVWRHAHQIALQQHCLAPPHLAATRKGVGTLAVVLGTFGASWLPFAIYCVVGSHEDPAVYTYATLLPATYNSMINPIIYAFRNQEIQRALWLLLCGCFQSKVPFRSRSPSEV
UniProt Q99814, sequence (whole entry, unmodified, looked up): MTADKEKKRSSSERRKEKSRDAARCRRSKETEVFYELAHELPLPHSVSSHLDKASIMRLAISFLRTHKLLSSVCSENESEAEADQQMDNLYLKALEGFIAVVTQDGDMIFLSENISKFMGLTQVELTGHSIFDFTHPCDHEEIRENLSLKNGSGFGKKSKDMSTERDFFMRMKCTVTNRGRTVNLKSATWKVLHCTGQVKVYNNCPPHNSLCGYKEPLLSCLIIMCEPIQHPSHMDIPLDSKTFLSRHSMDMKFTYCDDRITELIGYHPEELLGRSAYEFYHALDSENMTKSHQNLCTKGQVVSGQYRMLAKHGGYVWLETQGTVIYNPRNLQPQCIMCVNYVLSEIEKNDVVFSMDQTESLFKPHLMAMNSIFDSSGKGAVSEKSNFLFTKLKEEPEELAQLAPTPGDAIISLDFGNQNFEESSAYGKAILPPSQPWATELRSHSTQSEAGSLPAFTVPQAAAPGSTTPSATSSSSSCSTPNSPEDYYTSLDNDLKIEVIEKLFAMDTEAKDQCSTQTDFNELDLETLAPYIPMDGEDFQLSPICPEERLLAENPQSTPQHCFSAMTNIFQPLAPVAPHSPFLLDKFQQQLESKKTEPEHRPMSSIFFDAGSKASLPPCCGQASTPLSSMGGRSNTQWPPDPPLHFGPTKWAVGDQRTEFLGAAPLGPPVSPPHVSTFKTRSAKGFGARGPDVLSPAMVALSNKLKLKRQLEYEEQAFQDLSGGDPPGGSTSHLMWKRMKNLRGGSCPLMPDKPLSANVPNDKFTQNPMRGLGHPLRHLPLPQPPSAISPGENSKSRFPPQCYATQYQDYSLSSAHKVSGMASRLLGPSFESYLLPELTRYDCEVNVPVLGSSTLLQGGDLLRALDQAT
UniProt Q9UW13, sequence (whole entry, looked up): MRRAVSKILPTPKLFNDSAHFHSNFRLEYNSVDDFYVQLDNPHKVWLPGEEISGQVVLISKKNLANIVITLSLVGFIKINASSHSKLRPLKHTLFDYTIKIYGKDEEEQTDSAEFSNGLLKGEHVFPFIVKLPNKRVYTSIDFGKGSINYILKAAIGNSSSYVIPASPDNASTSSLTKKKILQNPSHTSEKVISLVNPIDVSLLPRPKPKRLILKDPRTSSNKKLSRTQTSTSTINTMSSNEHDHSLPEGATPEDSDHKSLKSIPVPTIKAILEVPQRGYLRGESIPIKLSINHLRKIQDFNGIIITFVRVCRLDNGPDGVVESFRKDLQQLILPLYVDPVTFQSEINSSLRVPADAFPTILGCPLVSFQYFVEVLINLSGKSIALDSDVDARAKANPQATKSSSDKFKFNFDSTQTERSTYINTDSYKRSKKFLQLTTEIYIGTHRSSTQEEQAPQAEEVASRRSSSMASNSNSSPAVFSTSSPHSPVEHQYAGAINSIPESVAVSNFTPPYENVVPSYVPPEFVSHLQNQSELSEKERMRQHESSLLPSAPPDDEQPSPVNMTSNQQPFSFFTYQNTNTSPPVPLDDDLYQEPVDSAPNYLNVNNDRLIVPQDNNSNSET
UniProt Q01105, sequence (whole entry, looked up): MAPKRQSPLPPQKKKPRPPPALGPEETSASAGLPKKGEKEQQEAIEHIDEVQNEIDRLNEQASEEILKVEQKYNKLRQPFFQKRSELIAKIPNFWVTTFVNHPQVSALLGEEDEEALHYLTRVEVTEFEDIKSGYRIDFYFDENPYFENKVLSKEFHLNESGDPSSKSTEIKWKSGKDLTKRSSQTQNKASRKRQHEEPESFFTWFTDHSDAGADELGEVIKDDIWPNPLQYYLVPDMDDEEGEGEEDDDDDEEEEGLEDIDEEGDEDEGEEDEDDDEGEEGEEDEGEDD
UniProt Q8N9F0, sequence (whole entry, looked up): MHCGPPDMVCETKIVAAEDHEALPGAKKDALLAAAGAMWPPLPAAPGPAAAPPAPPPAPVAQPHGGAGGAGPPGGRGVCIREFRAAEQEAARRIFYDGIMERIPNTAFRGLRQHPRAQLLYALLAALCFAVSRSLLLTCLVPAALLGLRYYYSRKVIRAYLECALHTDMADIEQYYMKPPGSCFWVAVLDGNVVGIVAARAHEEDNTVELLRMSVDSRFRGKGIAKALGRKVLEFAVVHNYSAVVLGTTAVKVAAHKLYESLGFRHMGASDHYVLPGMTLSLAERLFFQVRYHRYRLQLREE
UniProt Q60893, sequence (whole entry, looked up): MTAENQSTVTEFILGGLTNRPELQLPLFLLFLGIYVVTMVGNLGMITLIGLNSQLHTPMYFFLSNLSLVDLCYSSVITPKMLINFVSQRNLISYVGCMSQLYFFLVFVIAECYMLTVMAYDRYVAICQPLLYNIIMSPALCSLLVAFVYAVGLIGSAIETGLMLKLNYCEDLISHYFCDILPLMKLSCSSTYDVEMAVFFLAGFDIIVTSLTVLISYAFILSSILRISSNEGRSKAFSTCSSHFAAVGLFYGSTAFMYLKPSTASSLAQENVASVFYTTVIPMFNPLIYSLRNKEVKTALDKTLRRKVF
UniProt P61962, sequence (whole entry, looked up): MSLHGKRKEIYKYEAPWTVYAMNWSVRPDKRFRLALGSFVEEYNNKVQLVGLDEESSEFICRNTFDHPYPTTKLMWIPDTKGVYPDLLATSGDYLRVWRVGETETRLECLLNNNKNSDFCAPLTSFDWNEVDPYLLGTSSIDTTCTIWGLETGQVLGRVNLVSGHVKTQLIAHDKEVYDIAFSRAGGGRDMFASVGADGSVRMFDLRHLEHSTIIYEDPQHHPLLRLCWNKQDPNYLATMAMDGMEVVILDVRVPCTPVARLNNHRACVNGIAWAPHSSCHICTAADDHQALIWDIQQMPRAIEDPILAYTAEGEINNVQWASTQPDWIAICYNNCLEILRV
UniProt P54292, sequence (whole entry, looked up): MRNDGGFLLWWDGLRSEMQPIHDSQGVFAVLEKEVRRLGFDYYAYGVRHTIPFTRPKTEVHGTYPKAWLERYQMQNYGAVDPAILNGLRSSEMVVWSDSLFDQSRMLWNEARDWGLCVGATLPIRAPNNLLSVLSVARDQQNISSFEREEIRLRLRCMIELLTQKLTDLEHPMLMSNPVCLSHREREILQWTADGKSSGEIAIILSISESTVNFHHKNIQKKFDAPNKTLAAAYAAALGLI
UniProt Q16774, sequence (whole entry, unmodified, looked up): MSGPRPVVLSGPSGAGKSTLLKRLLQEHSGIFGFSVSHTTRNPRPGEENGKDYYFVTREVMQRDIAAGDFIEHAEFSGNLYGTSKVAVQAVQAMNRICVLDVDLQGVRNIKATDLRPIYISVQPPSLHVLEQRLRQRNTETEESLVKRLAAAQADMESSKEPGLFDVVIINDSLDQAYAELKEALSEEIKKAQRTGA

COc1cccc(C(=O)C#Cc2ccc(O)c(OC)c2)c1
binding (rhlR (Pseudomonas aeruginosa, UniProt P54292); receptor binding; concentration not given, 1.5 h, with: BHL at 1:1 ratio; reference: control): 64%

CC1CCCN(C(=O)c2cc3ncccn3n2)C1 (stereo not shown)
fold enrichment (DDB1- and CUL4-associated factor 7 (Homo sapiens, UniProt P61962); binding, affinity selection mass spectrometry; reference: other proteins in batch): 1.08

CCN1CCC[C@H]1CNC(=O)c1c(O)c(Cl)cc(Cl)c1OC
log2 fold change (G-protein coupled receptor 6 (Homo sapiens, UniProt P46095); β-arrestin recruitment, TANGO luminescence, refers to: GPR6; concentration not given; reference: basal luminescence): 0.017

COc1ccc(C(C)=O)cc1
Emax (Or8a1 (Mus musculus, UniProt Q60893); odorant-evoked current, agonist; isolated olfactory neurons; reference: acetophenone saturated response): 88 ± 10%

N[C@H]1CCN(c2nccc(-c3cnn4ncccc34)n2)C1
remaining binding (ABL1 (Homo sapiens, UniProt P00519, T315I); KINOMEscan; 1 µM; reference: control): 100%

N[C@@H](CC(=O)O)C(=O)O
Km (N-acetylaspartate synthetase (NAT8L, Homo sapiens, UniProt Q8N9F0); substrate, CPM fluorescence; 30 min): 237 µM

O=[N+]([O-])c1cc(C(F)(F)F)ccc1NCc1ccsc1
koff (Endothelial PAS domain-containing protein 1, PAS-B domain (EPAS1, Homo sapiens, UniProt Q99814, N288Q); ZZ-exchange NMR; 25 °C): 0.79 ± 0.06 s⁻¹

COc1ccc(F)cc1C(=O)NCc1ccc(-c2nn([C@@H](C)C(F)(F)F)c(N)c2C(N)=O)cc1
remaining activity (MAP4K1 (Homo sapiens, UniProt Q92918); kinase activity, inhibitor, HotSpot radiometric; 1000 nM, with: ATP at Km): 103 ± 1.4%

O=C1C=CC(=O)c2c1ccc1ccccc21
fold change (Aryl hydrocarbon receptor (Danio rerio, UniProt Q9YGV3); reporter gene, agonist, luciferase reporter; ZF-4; 123.5 µM; reference: vehicle control): 14

CC[C@@H]1[C@H](F)C(=O)N[C@@H]1COc1nccc2cc(C(N)=O)c(OC)cc12
inhibition (RPS6KA2 (Homo sapiens, UniProt Q15349); ATP-site probe binding, ActivX profiling, refers to: RSK3; THP-1 cell lysate; 0.2 mM, Lys2 site): 2.6%

CC(=C/C(=O)O)/C=C/C=C(\C)C1C=C2C(C)(C)CCCC2(C)O1 (stereo not shown)
plasma membrane localization (Rhodopsin (RHO, Homo sapiens, UniProt P08100, P23H); immunostaining, refers to: opsin; COS-7 transfected; 20.00 µM, unit not given; reference: surface over total stained cells): 0.92

Nc1ncnc2c1ncn2[C@@H]1O[C@H](COP(=O)(O)OP(=O)(O)O)[C@@H](O)[C@H]1O
ΔH (GUK1 (Homo sapiens, UniProt Q16774); ITC; molar ratio 0.297): -2.96 kcal/mol

CCCCCCCCCCCCC/C=C/[C@@H](O)[C@H](CO)NC(=O)CCCCCCCCCCCCCCCCCCCCCCCCC
bound endogenous lipid (Protein SET (SET, Homo sapiens, UniProt Q01105); lipid binding, GFP pull-down LC-MS/MS; A549 overexpressing GFP-tagged protein; ER-targeted construct, unit not given; reference: vector-transfected cells): 0.4

Oc1ccccc1-c1n[nH]cc1-c1ccnc2ccccc12
log2 fold change (pH-response regulator protein palF/RIM8 (RIM8, Candida albicans, UniProt Q9UW13); kinase binding, MIB/MS competition; Candida albicans lysate; 1 µM; reference: DMSO, negative = stronger binding): 0.08

COc1cc(-c2cc(C(C)=O)n3ccccc23)cc(OC)c1Cn1ccnc1
ΔTm (SMARCA2 (Homo sapiens, UniProt P51531)): -3 °C

COC(=O)c1ccc(C(=O)c2c[nH]c3ccccc23)s1
Emax (AHR (Homo sapiens, UniProt P35869); reporter gene, agonist, XRE luciferase; HepG2; reference: ITE): 67 ± 8%
